Results pooled from the literature.
Lines come from different studies, so protocols differ. “And” joins repeats or separate records; there may be more than shown. Numbers after ± are the reported error.

| Structure (SMILES) | cell line | assay | conditions | how to read | measurement | value |
| --- | --- | --- | --- | --- | --- | --- |
| CCC(=CCc1c(O)cc2c(c1O)C(=O)CC(c1ccc(OC)cc1O)O2)CC (stereo not drawn) | HeLa | cell growth or viability, MTT | 3.125 µM, 48 h |  | inhibition | 7.3% |
| CCNc1cc2c(cc1C)C1(c3cc(C)c(NCC)cc3O2)c2ccccc2C(=O)N1N=Cc1c[c-]c(-c2ccccn2)cc1.Cc1c(C)c(-c2ccc(-c3ccccc3)cc2)[c-](C)c1C.[Cl-].[Ir+3] | A549 | PI flow cytometry | 0.25 x IC50, 24 h |  | G2/M phase cells | 13.2 ± 0.23% |
| CCC(=CCc1c(O)cc2c(c1O)C(=O)CC(c1ccc(O)cc1OC)O2)CC (stereo not drawn) | HeLa | cell growth or viability, MTT | 12.5 µM, 48 h |  | inhibition | 21.8% |
| CC(=O)N[C@@H](CO)C(=O)N[C@H](C(=O)N1CCC[C@H]1C(=O)N[C@@H](CC(=O)O)C(=O)COC(=O)c1c(C)cccc1C)C(C)(C)C | THP-1 cells, LPS-primed | pyroptosis, LDH release | 25 µM, LPS 1 µg/mL, 4 h, with: nigericin 5 µM, 2 h |  | cell lysis | 45.8% and 43.2% |
| CC12CCCC(NC(=O)c3ccc(Br)cc3)(C1)C1CC(C)(C)C1CC2 (stereo not drawn) | HT-29 | cell growth or viability, CCK-8 | 10 µM |  | inhibition | < 50% |
| CNS(=O)(=O)Nc1nccc(Cc2c(C)c3ccc(Oc4ncccc4F)cc3oc2=O)c1F | SKM-1 | cell viability | 7 days |  | IC50 | 3.95 nM |
| COc1ccc(C(=O)NC23CCCC(C)(CCC4C2CC4(C)C)C3)cc1 (stereo not drawn) | HT-29 | cell growth or viability, CCK-8 | 300 µM |  | inhibition | 98.6% |
| CC(=O)N[C@@H](CO)C(=O)N[C@@H](Cc1ccccc1)C(=O)N[C@@H](C)C(=O)N[C@@H](CC(=O)O)C(=O)COC(=O)c1c(C)cccc1C | THP-1 cells, LPS-primed | pyroptosis, LDH release | 25 µM, LPS 1 µg/mL, 4 h, with: nigericin 5 µM, 2 h |  | cell lysis | 88.5% |
| O=S(=O)(Nc1ccc(OC(F)(F)F)cc1)N1CCCC(C2c3ccccc3CCc3ccccc32)C1 (stereo not drawn) | D341 | immunoblot, refers to: CIP2A | concentration not given |  | protein level | decreased |
| N#C[C@@H]1CC(F)(F)CN1C(=O)CNC(=O)c1ccnc2ccc(OCCCN3CCN(C(=O)CCc4ccc(O)c(CN5CCN6CC(=O)[O][Al-]([18F])([O]C(=O)C5)[O]c5ccc(CCC(=O)N7CCN(CCCOc8ccc9nccc(C(=O)NCC(=O)N%10CC(F)(F)C[C@H]%10C#N)c9c8)CC7)cc5C6)c4)CC3)cc12 (stereo partly drawn) | HT1080 cells expressing human FAP |  | 30 min, 37 °C |  | internalized fraction | 78.5 ± 4.4% |
| CCN(C(=O)c1cc(F)ccc1Oc1nncnc1N1CCC2(C1)CN([C@H](CCCN(C)CCOC)C(C)C)C2)C(C)C | MINO | cell growth or viability | 7 days |  | GI50 | > 10 µM |
| CCC(CC)n1c(Cc2ccco2)nc2cc(C(=O)N[C@@H](CC(=O)O)c3ccccc3)ccc21 | 3T3 fibroblasts | refers to: α-SMA, Fn1, Col1α2, Timp1 | concentration not given, 48 h, with: MCM |  | mRNA level | decreased |
| CCc1ccc2oc(=O)cc(Cn3ccnc3)c2c1 | COS-7 (untransfected) |  | 500 µM, unit not given | baseline: 3 µM ionomycin | calcium mobilisation signal | 13.5 ± 2.58 |
| COc1cccc(CNC[C@](O)(COCc2ccccc2)[C@@H]2CC[C@@H](C)C[C@H]2OCc2ccccc2)c1 | A2780 | cell growth or viability, MTT | 30 µM, 72 h |  | inhibition | 99.1% |
| Cc1ncsc1-c1ccc(C(C)NC(=O)C2CC(O)CN2C(=O)C(NC(=O)CCCCCCCCCCN2CCCC(Nc3ncc(Cl)c(Nc4ccccc4S(=O)(=O)C(C)C)n3)C2)C(C)(C)C)cc1 (stereo not drawn) | 22Rv1 | RNA-seq, refers to: PUDP mRNA | concentration not given | baseline: DMSO | log2 fold change | -1.02 |
| C=CC(=O)N1CCCC(n2c(=O)c3ncccc3n(Cc3ccc(Oc4ccccc4)cc3)c2=O)C1 (stereo not drawn) | Rec1 | refers to: ZYX | concentration not given | baseline: untreated | log2 fold change | 0.441 |
| CCN(CC)CC(=O)Nc1cccc(-n2cc(-c3ccc4ccc(-c5cn(-c6cccc(NC(=O)CN(CC)CC)c6)nn5)cc4c3)nn2)c1 | RCC4 | PCR angiogenesis array, refers to: TGFB1 | 5 x IC50, 4 h, normoxia | baseline: untreated | fold regulation | -1.1 fold |
| CN1CCCNC(=O)c2cccc(c2)C(=O)NCCCN(C)CCCNc2cccc3c2C(=O)c2cccc(c2C3=O)NCCC1 | SAS | RNA-Seq, refers to: TCEA2 mRNA | 1 µM, 6 h | baseline: untreated cells | log2 fold change | 0.893 |

Excerpt of the above:
| Structure (SMILES) | cell line | assay | conditions | how to read | measurement | value |
| --- | --- | --- | --- | --- | --- | --- |
| Cc1ncsc1-c1ccc(C(C)NC(=O)C2CC(O)CN2C(=O)C(NC(=O)CCCCCCCCCCN2CCCC(Nc3ncc(Cl)c(Nc4ccccc4S(=O)(=O)C(C)C)n3)C2)C(C)(C)C)cc1 (stereo not drawn) | 22Rv1 | RNA-seq, refers to: PUDP mRNA | concentration not given | baseline: DMSO | log2 fold change | -1.02 |
| C=CC(=O)N1CCCC(n2c(=O)c3ncccc3n(Cc3ccc(Oc4ccccc4)cc3)c2=O)C1 (stereo not drawn) | Rec1 | refers to: ZYX | concentration not given | baseline: untreated | log2 fold change | 0.441 |
